Assay results from different studies.
A part holds a random share of what one study measured.

Block 1
Target: RING finger protein unkempt homolog, zinc fingers 1-6, GST-SBP tag (UNK, Homo sapiens, UniProt Q9C0B0, residues 30-357)
UniProt Q9C0B0, sequence (30-357, looked up): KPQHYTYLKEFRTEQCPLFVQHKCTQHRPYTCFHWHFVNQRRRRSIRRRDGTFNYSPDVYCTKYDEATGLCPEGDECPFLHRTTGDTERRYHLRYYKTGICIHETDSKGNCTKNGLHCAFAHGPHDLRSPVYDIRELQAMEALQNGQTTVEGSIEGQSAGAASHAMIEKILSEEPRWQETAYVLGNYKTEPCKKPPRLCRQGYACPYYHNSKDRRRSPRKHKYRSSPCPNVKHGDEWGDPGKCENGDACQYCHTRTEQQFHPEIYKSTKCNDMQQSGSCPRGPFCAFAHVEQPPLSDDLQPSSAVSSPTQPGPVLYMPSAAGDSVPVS
Method: RNA Bind-n-Seq
Molecule type: RNA
Matrix: in vitro
Tested at: not given
Notes: RNA with constant flanks, human and mouse sites, ends assumed
Baseline: input RNA pool
Direction: higher = stronger binding
Quantity: bound/input enrichment
All sequences stand within: GGGAGUUCUACAGUCCGACGAUC … CAACAGAGGAUUGAGCAUCA
CAGUCCUGCGUUUCCUCCCUAAAUUCUAUUUUGUUAUUUGGUUUUCUUUACUCUGGUUUUUAGUAACAGGAUCACGUAUUAAAAUUUGCUGUUAAUUAAAGUUUACCUUUUGAUUUUACA: 0.442 ratio
GAAGCCAUCUGUGUGGUGCCUUAGACCAGAGAAGUUAAAGAUCUGCUCCUAACAUUGAGGCUUCCUUGAGCCUUUUUAAAGCUGCAGUCUCAUUUCAUUACCUCAUUUGAACCUGCCCCU: 0.188 ratio
AGCCAGUCCCUAGGGCUCAGGGAGCAGGAGCUUCAGGUUGUCCGAGCAUCUGGGAAGUAAGUGGUAGGGGUGACAGGAAGCUAGGAGUACAGGCAUCCAUCUGUGGUGGGGAAACAGCUG: 0.246 ratio
GAUGUGUGUGUGAUGGUUAUUUUGUUUUGUUUUGUUUUGUUUUGUGACAGGGUCUCUCUCCAUAGACAUAGUCCUGGCUAUUCUAGAGCUCACUGUGUAGACCAGGCUGGCCUUGAACAG: 1.78 ratio
CAAACCAGAAAUACCUCAGAAUUUUCUACUUGUGUAUGUUUUAUUAAUUAUAUAUUUUGUUAGUUGUGUUGUCUUGUAGGAAGUAUAUUUUAAUGUAAGUUGACUUUUAUGACGAGGAAG: 10.9 ratio
AAAAGCCGGGGAGGCUUUUUUAAUUCAUUUGAAUGUAUGAUUCUCGGACACUCCUUUUGACUUAGGGAUUUGCUUGAAUGCAUAAAGUCAAGAAGCAGAUAGGCUGGCAGGUUUCCAGGC: 0.424 ratio
UAUUGCAAGGACCUUCUUUGCUGCCAGUUAUCAUAGGCUGUUUUAAGUUAGAAAACUGAAUAGCAACACUGAAUACUGUAGAAAUGCACUUUGCUCAGUAAUACUUGAGUUGUUGCAAUA: 0.265 ratio
CUUAGUCCUGAUGCUGUCUAUGUACUGUGCUACUCUUUGAUUCUACUUUCCAUUGACCUCACUAGCCCUCAUGUGAAGAAUAAAAUGUCAAAAAGGGAAUUUAUUCGAAAUACCCGUCGC: 0.422 ratio
GCUGGUCAUCCUCUGGCACAGAACGAACGUUGUCUUCACAUGUUUUUACAAGAUGAAAUAAUAGAUAAAAGCUAUACUCCAUCUAAAAUAAGACAUGCCUGAAAUUUGGCAAGAAGGGGC: 0.172 ratio
UGUCUUUAUUUGACGAAAACGAGCUGUUGCGCAGCCAUUGGUACCUGUAUUGGGGAAACAUAGCAUACAAGCAAGAAGCUUACAGCCUCAGUGGCGAAAAUUUUUUCAUGUCAGAGACCG: 0.216 ratio
UGUCUUGCUUUUCACCCAACAGAACAGAUCCUGGCCUCGGGCUCAAGGGAUUAUACUCUGAAAUUGUUCGAUUAUUCCAAACCGUCUGCAAAAAGAGCUUUCAAAUACAUUCAGGAAGCC: 0.174 ratio

Block 2
Target: Ras GTPase-activating protein-binding protein 1, full length (G3BP1, Homo sapiens, UniProt Q13283)
UniProt Q13283, sequence (whole entry, looked up): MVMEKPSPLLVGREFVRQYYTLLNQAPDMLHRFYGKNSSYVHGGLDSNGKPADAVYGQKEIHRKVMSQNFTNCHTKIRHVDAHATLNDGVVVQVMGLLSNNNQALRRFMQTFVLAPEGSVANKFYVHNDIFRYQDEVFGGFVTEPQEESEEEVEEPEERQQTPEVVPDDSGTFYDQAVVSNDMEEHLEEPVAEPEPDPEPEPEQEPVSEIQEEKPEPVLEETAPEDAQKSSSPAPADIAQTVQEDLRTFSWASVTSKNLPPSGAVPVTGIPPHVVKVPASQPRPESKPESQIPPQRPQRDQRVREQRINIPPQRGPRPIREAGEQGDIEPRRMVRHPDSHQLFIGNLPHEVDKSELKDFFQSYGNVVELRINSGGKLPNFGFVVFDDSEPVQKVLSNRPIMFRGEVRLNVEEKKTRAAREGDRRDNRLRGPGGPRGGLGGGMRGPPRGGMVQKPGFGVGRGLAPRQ
Method: RNA Bind-n-Seq
Molecule type: RNA
Matrix: in vitro
Tested at: 200 nM
Notes: whole 134-nt RNA, ends assumed
With: 150 mM LiCl
Baseline: input library
Direction: higher = stronger binding
Quantity: log2 enrichment
All molecules: 7-deaza-guanosine replaces G
All sequences stand within: GGGAGUUCUACAGUCCGACGAUC … UGGAAUUCUCGGGUGUCAAGG
CUCAAGUCCUGUGCUACACAUCGUAUGUACCGAAUCGGGGCCGGGGCCGGCCGGAAAGUAUUAUGUUACGCCGUUCGGAUCUGCACUUCC: 0.286
GUCCUGUGCUACACAUCGUAUGUACCGAAUCAAAUUUAAACCCCCCCAAACCCCCAAAAAAGUAUUAUGUUACGCCGUUCGGAUCUGCAC: 0.416
GUCCUGUGCUACACAUCGUAUGUACCGAAUCGGGGUUUUUUUGGGGUUUGGGGUGGGGAAAGUAUUAUGUUACGCCGUUCGGAUCUGCAC: -0.785
CUGUGCUACACAUCGUAUGUACCGAAUCGGGCCCCCCCGGGCCCCCCCGGGCCCCCCCGGGAAAGUAUUAUGUUACGCCGUUCGGAUCUG: -0.206
GCAGGAAGUAAAAACAAAUGAAAAUGCUUCGGAUAGUGGCAGGGGUGGGGGUUGCUAAGGAAAGGGUGGGAUGGGAGUGGGUAAAGAGUU: 0.153
CACAGACAACACGCACCCACACAGACACAGAGGGAAGGGGUUGGGAUGGGGACAGGGUGCACAAAAGGGCGGGGUAGGACCCCAGCCCCU: -0.00424
CACAGACAGCACGCACCCACACAGACACAGAGGGAAGGGGUUGGGAUGGGGACAGGGUGCACAGCAGGGCGGGGUAGGACCCCAGCCCCU: 0.341
UAACUUUAGACGAGGAUCUGAUGGAUAUGGCAGUGGACGUGGAUUUGGGGAUGGCUAUAAUGGGUAUGGAGGAGGACCUGGAGGUGGCAA: -0.174
GUCCUGUGCUACACAUCGUAUGUACCGAAUCGGUUUUUGGGGUUUUUGGGGUUUUUGGAAAGUAUUAUGUUACGCCGUUCGGAUCUGCAC: 0.0823
UGUGCUACACAUCGUAUGUACCGAAUCGGGUUUUUUUGGGGUUUUUUUGGGUUUUUUUGGGGAAAGUAUUAUGUUACGCCGUUCGGAUCU: 1.78
CAAGUCCUGUGCUACACAUCGUAUGUACCGAAUCGGCCCCGGCCCCGGCCCCGGGGAAAGUAUUAUGUUACGCCGUUCGGAUCUGCACUU: -0.182

Block 3
Target: Histone acetyltransferase KAT6A, both winged helices, GST fusion (KAT6A, Homo sapiens, UniProt Q92794, residues 1-181)
Method: protein binding microarray
Molecule type: double-stranded DNA, one strand shown
Matrix: in vitro
Tested at: not given
Notes: 8-mer, flanks averaged, mean of 2 arrays, mostly near background
Baseline: not given
Direction: higher = stronger binding
Quantity: E-score
Construct (chain): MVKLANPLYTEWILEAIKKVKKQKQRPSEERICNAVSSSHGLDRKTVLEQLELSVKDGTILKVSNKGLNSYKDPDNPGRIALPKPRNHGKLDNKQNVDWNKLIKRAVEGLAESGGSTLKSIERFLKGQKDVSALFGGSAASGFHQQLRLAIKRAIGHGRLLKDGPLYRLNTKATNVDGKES
GTGCCGCA: 0.172
AGAAGCAA: -0.174
AGTGCAAA: -0.0937
ACCTTTAA: -0.0778
ATACCGGG: 0.166
GCAGGGAA: -0.113
GAATCTAC: 0.0263
AAACGGTG: 0.0183
CACAGAAA: -0.0962
ATTACAGA: -0.0533
CCGGGGAG: 0.154
AATCCGCA: 0.221
AATCGGTG: -0.031
TAGTGGCA: -0.152
ATGGATCG: 0.147
CCAGACGG: 0.0976
TCGACTAA: -0.112
CCTCTCCA: -0.161
CCGCGGGC: 0.335
TCTCTGAA: -0.23
CTGGTTGC: 0.00074
GCAAGGCA: -0.124
ATTTTTCA: -0.0618
CACATTCA: -0.185
ACATATTG: -0.202

Block 4
Target: Hepatocyte nuclear factor 3-alpha (Foxa1, Mus musculus, UniProt P35582, residues 1-468, full length assumed)
Method: EMSA with sequencing
Molecule type: double-stranded DNA, one strand shown
Matrix: in vitro
Tested at: 10 and 20 nM
Notes: whole designed probe, mean of two concentrations, ends assumed
Baseline: negative control set to 0
Direction: higher = stronger binding
Quantity: normalised bound fraction
All sequences stand within: GTGAGCGGTGCCCATTGATGGGGAAC … TTTCACTGGGATCGTGGGGAC
Residues (chain): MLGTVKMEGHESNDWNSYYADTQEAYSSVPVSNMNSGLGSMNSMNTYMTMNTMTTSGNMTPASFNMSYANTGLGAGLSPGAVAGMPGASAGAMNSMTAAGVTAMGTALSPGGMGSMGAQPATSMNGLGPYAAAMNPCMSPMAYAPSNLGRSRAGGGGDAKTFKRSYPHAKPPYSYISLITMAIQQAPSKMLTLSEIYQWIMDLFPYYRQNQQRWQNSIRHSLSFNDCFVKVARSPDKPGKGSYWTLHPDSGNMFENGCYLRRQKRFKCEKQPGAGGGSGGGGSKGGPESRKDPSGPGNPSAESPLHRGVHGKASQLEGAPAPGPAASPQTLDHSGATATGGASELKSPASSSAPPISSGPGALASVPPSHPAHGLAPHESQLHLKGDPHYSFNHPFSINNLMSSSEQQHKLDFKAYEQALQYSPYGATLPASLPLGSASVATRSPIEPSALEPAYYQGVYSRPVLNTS
GTGTGTGCGCGCGCGTGTGTGTGTGTTTTCTTAAGCCGGGCTATTCAAACCCTGCTGCAATTCTCCGGTACAATGATTCATAAGGGGCATAATGCAAATAAACGGATTGCAAACGGCGCGGTTCGCGCACTTTGCAGCCGGCCCGGTGGAGCAGCCAGTGCCGGATTTCTCCCTTTTTTTGCAGATCTGCAGA: 0.393 ratio
CCTGAGTTGGTGGAGCCACAAAAAGGAATCCCTGAGTCACTGCTTAGTCACTGGGCTGCCTTGGAGAGTTGATGAGACCTCAGCAAACTTTGTGTAATTTAAGAAATGAACGCTTACATTTTAACTACCGGAACTTGGAGGTTTGTTTGTTACTGCAACAAAGGTTAGCTTTATTGACTAATGCACTGTAACA: 0.219 ratio
GAAGGAAATAATGGAGCCAACCATGCATATAACCTCAGGGAGAACATTCTAGGTAGAGGGAACAGCAAGTGCAAAGGCCCTGAAGTGGGGGTTTGTTTACCTTCTGCACACAGGCCAGTACAATGTTGCACAATTGGAATGGATGGGAAATGTAAAAGAGAGAAGTTGAAAAGGCCAGGTGCAGTGGCTCATG: 0.407 ratio
TTTAGACAACCATTTTGCTTATGTTGTACTCTTTTTATAGAATATGAAAAAGAAAGTGTAAAAAGCAGATCTTATAAAATTCTCTTACCTTCCATGTTTACATTTTGATGTTGGTATCAATTTACTCTCCTATAGATGCTTGGTATTATTATTTTTGAAACAGAGAAATTTCACGTGTGTAAAATTACAGAGT: 0.255 ratio
GACATGTTAAGGCTTGTTCTATTTATTAGAAAATATATAAAGAGTTCTTGGCTTAAGAACTCTTCTGGCTATCAGCTCCCTGATGTGAAAAAAGTAATTTGCAAGGGGTAGCATGGAGTCTTACTCCCGTGTGACAGACAGCTTAAGAAAGACAATTGGACATCATGTGACTACATGATTCAAGCTAAAGTCC: -0.0334 ratio
ATCTTCCCCCTCTTCCTTGCCCCACCAGCTCACCTTCCCGGGTTATTTGCAGATAGGAAAATAAATAAAGCCGGCATTCGTTAACCCTCTTCACGCGCATACTGCCAAAGTAAACAGATCTAACATGGTCCTTTGGCGACGCCAGGCTCCGGGAGAGCAAAGCACCGTGTCAGGGCCATGATCCGGGGTGGCC: 0.494 ratio
ATCTTCCCCCTCTTCCTTGCCCCACCAGCTCACCTTCCCGGGTTATTTGCAGATAGGAAAATAAATAAAGCCGGCATTCGTTAACCCTCTTCTGGCGCAAACTGCTGTTTGCTCTGGATGAATCAGTTTTCGCGGCCCGGTCAAGGCTCCGGGAGAGCAAAGCACCGTGTCAGGGCCATGATCCGGGGTGGCC: 0.343 ratio
GTCTCCTGGGGTTCTGCGAAATCTAGCCAGAAGCATCTCCATCTCGGTGTCCATTTCGATCCAACTAAGCTTCCAGTAAAGACACTGCAGCAATGTAAACATGCAACCTAAGCTAGCATGAGGTTCTAGATAGTAAGCCTGAACTAGGAATAAGGCAACTGAACTGTGACTTTCGGGCCAGGGTCATCCAGCT: 0.349 ratio
